Published values gathered from unrelated publications.
A part holds a random share of what one study measured. Values joined by “and” are separate records of one study, mostly repeats; a detail may differ.

Block 1
SMILES: CCC1(c2cccc(-c3cn(C)nc3C)c2)C2=C(Nc3n[nH]cc31)C(F)C(C)(C)CC2=O (single isomer, unassigned)
Concentration: 1 µM
| target | effect on | method | reference | remaining binding |
| --- | --- | --- | --- | --- |
| Myosin-IIIa (MYO3A, Homo sapiens, UniProt Q8NEV4) | kinase binding | KINOMEscan | DMSO control | 100% |
| KIT (Homo sapiens, UniProt P10721) | kinase binding | KINOMEscan | DMSO control | 100% |
| DAPK2 (Homo sapiens, UniProt Q9UIK4) | kinase binding | KINOMEscan | DMSO control | 100% |
| MAP2K1 (Homo sapiens, UniProt Q02750) | binding | competition with immobilised ligand | – | 69% |
| PRKAA1 (Homo sapiens, UniProt Q13131) | binding | competition with immobilised ligand | – | 96% |
| PDGFRB (Homo sapiens, UniProt P09619) | kinase binding | KINOMEscan | DMSO control | 94% |
| PIM3 (Homo sapiens, UniProt Q86V86) | binding | competition with immobilised ligand | – | 100% |
| BLK (Homo sapiens, UniProt P51451) | kinase binding | KINOMEscan | DMSO control | 90% |
| PIP4K2B (Homo sapiens, UniProt P78356) | binding | competition with immobilised ligand | – | 100% |
| PTK2 (Homo sapiens, UniProt Q05397) | binding | competition with immobilised ligand | – | 100% |
| Tyrosine-protein kinase ABL1, phosphorylated (ABL1, Homo sapiens, UniProt P00519, E255K) | kinase binding | KINOMEscan | DMSO control | 77% |
| FLT4 (Homo sapiens, UniProt P35916) | binding | competition with immobilised ligand | – | 100% |
| PKN2 (Homo sapiens, UniProt Q16513) | kinase binding | KINOMEscan | DMSO control | 100% |
| RIOK2 (Homo sapiens, UniProt Q9BVS4) | binding | competition with immobilised ligand | – | 84% |

Block 2
Compound: COc1cc(C(=O)OCCCN2CCCN(CCCOC(=O)c3cc(OC)c(OC)c(OCc4ccc([N+](=O)[O-])cc4)c3)CC2)cc(OC)c1OC
| assay | test system | conditions | paw withdrawal frequency |
| --- | --- | --- | --- |
| von Frey test | mouse, STZ diabetic neuropathy | subcutaneous, 30 mg/kg, second of three doses, 3 h | 0.23 fraction of stimuli and 0.51 fraction of stimuli and 0.09 fraction of stimuli and 0.1 fraction of stimuli and 0.36 fraction of stimuli and 0.98 fraction of stimuli |
| von Frey test | mouse, STZ diabetic neuropathy | subcutaneous, 30 mg/kg, second of three doses, 24 h | 0.29 fraction of stimuli and 0.13 fraction of stimuli and 0.23 fraction of stimuli and 0.32 fraction of stimuli and 0.06 fraction of stimuli |
| cold mechanical pain | mouse, spared nerve injury model | intrathecal, 100 nmol, before second of 3 doses | 50% and 80% and 60% |
| von Frey, 0.4 g filament | mouse, CFA inflammatory pain | intraplantar, after CFA, before dosing | 90% and 100% and 80% |
| von Frey, 0.4 g filament | mouse, CFA inflammatory pain | intraplantar, baseline before CFA | 10% and 20% and 0% |
| von Frey, 0.4 g filament | mouse, CFA inflammatory pain | intravenous, dose not given, 1 h post-dose, third injection, day 5 | 20% and 40% and 30% |

Block 3
Compound: Cc1ncsc1-c1ccc(C(CO)NC(=O)C2CC(O)CN2C(=O)C(C(C)C)n2cc(-c3ccc(COc4c(-c5c(C)c(F)cc6[nH]ncc56)c(C5CC5)cc5c(N6CC7CC6CN7)nc(OC6CCOCC6)nc45)cc3)nn2)cc1 (stereo not drawn)
| cell line | host | dose | time | tumour volume |
| --- | --- | --- | --- | --- |
| GP5d xenograft | mouse | 30 mg/kg twice weekly | day 0 | 163 mm3 and 215 mm3 and 166 mm3 and 157 mm3 and 189 mm3 |
| GP2d xenograft | mouse | 30 mg/kg twice weekly | day 11 | 185 mm3 and 134 mm3 and 196 mm3 and 168 mm3 and 156 mm3 |
| PK-1 xenograft | mouse | 30 mg/kg once weekly | day 4 | 160 mm3 and 161 mm3 and 117 mm3 and 138 mm3 and 167 mm3 |
| – | mouse, PK-59 xenograft | 0.3 mg/kg | day 17 | 1380 mm3 and 1150 mm3 and 1410 mm3 and 1500 mm3 and 1610 mm3 |
| – | mouse, PK-59 xenograft | 3 mg/kg | day 4 | 327 mm3 and 383 mm3 and 341 mm3 and 435 mm3 and 466 mm3 |
| HPAC xenograft | mouse | 30 mg/kg twice weekly | day 4 | 136 mm3 and 152 mm3 and 121 mm3 and 278 mm3 |
| – | mouse, lung LXFA sample A PDX | 30 mg/kg twice weekly | day 6 | 178 mm3 and 96.8 mm3 and 74 mm3 and 148 mm3 and 205 mm3 and 15 mm3 and 93.2 mm3 and 113 mm3 |

Single results of other studies
Route: oral
| Structure (SMILES) | host | matrix | dose | time | measurement | result |
| --- | --- | --- | --- | --- | --- | --- |
| Cc1ccc(O)c(C)c1-c1cnc2[nH]c(-c3cnc(N4CCC(CN5CCN(c6ccc(NC7CCC(=O)NC7=O)cc6F)CC5)CC4)nc3)cc2c1C#N (stereo not drawn) | male cynomolgus monkey | plasma | 10 mg/kg | – | Cmax | 89 ng/mL |
| Cc1ccc(O)c(C)c1-c1cnc2[nH]c(-c3cnc(N4CCC5(CC4)CC(N4CCN(c6ccc(N[C@H]7CCC(=O)NC7=O)cc6F)CC4)CO5)nc3)cc2c1C#N (single isomer, unassigned) | mouse HCC1569 xenograft | – | 120 mg/kg twice daily | 21 days | tumour growth inhibition | 66.4% |
| Cc1ccc(O)c(C)c1-c1cnc2[nH]c(-c3cnc(N4CCC(CN5CCN(c6cc7c(cc6F)c(N6CCC(=O)NC6=O)nn7C)CC5)CC4)nc3)cc2c1C#N | female CD-1 mouse | plasma | 60 mg/kg | – | bioavailability | 33.4% |

Some of these lines once more (block 1):
| target | effect on | method | reference | remaining binding |
| --- | --- | --- | --- | --- |
| Tyrosine-protein kinase ABL1, phosphorylated (ABL1, Homo sapiens, UniProt P00519, E255K) | kinase binding | KINOMEscan | DMSO control | 77% |
| FLT4 (Homo sapiens, UniProt P35916) | binding | competition with immobilised ligand | – | 100% |
| PKN2 (Homo sapiens, UniProt Q16513) | kinase binding | KINOMEscan | DMSO control | 100% |
